{"data": "Experimental data gathered from unrelated publications", "note": "Every numbered part comes from another study and shows a few of its results, in no order.", "sequence of UniProt Q92918 (whole entry, looked up)": "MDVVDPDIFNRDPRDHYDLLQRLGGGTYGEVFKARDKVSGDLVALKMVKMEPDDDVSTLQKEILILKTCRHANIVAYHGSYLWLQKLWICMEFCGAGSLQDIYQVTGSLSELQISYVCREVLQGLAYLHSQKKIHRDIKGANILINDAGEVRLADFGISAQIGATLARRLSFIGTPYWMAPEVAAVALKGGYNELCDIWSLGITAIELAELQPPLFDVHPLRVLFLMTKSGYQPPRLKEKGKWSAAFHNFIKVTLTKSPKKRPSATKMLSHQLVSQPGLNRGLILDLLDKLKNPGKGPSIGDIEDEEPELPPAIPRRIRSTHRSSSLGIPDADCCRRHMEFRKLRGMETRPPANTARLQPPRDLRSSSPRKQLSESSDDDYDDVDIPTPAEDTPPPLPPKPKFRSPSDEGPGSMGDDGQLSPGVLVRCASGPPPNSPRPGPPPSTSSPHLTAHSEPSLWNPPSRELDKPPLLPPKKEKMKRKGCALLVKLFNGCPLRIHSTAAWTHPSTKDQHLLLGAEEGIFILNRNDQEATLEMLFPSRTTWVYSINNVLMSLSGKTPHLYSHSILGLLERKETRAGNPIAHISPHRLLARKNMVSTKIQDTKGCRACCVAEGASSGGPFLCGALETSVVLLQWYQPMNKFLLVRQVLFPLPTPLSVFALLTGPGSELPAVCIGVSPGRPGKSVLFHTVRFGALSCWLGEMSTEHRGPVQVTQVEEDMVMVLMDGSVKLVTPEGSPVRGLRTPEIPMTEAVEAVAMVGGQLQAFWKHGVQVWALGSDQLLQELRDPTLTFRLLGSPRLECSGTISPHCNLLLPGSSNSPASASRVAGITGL", "sequence of UniProt Q6P2M8 (whole entry, looked up)": "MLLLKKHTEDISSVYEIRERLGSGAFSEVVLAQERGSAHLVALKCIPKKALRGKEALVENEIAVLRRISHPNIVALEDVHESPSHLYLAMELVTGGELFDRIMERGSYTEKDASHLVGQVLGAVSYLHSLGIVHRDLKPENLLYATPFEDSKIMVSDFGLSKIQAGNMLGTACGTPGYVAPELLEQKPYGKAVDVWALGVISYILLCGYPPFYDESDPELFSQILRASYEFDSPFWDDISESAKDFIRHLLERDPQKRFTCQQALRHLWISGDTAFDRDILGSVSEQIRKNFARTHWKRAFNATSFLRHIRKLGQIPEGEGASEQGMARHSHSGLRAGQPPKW", "sequence of UniProt P21127 (whole entry, looked up)": "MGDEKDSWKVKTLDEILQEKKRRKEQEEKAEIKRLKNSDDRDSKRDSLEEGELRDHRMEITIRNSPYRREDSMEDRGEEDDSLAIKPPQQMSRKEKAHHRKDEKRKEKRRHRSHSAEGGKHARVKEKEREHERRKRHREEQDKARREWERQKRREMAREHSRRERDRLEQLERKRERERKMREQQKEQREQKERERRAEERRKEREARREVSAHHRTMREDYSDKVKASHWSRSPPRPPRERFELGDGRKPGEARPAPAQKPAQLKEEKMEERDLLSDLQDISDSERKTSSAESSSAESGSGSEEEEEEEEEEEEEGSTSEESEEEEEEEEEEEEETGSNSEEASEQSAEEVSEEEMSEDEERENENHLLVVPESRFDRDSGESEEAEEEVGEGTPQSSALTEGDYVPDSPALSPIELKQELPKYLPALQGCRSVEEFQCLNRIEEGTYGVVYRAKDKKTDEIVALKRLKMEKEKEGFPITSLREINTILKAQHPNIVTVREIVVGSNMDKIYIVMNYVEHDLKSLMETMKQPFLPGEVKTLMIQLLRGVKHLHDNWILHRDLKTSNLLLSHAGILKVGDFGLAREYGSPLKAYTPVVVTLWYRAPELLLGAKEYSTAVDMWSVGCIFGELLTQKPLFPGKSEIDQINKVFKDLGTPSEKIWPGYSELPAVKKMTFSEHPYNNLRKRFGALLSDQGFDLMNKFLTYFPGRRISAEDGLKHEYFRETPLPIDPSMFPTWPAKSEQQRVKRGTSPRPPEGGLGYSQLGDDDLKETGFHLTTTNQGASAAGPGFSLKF", "sequence of UniProt Q9UM73 (whole entry, looked up)": "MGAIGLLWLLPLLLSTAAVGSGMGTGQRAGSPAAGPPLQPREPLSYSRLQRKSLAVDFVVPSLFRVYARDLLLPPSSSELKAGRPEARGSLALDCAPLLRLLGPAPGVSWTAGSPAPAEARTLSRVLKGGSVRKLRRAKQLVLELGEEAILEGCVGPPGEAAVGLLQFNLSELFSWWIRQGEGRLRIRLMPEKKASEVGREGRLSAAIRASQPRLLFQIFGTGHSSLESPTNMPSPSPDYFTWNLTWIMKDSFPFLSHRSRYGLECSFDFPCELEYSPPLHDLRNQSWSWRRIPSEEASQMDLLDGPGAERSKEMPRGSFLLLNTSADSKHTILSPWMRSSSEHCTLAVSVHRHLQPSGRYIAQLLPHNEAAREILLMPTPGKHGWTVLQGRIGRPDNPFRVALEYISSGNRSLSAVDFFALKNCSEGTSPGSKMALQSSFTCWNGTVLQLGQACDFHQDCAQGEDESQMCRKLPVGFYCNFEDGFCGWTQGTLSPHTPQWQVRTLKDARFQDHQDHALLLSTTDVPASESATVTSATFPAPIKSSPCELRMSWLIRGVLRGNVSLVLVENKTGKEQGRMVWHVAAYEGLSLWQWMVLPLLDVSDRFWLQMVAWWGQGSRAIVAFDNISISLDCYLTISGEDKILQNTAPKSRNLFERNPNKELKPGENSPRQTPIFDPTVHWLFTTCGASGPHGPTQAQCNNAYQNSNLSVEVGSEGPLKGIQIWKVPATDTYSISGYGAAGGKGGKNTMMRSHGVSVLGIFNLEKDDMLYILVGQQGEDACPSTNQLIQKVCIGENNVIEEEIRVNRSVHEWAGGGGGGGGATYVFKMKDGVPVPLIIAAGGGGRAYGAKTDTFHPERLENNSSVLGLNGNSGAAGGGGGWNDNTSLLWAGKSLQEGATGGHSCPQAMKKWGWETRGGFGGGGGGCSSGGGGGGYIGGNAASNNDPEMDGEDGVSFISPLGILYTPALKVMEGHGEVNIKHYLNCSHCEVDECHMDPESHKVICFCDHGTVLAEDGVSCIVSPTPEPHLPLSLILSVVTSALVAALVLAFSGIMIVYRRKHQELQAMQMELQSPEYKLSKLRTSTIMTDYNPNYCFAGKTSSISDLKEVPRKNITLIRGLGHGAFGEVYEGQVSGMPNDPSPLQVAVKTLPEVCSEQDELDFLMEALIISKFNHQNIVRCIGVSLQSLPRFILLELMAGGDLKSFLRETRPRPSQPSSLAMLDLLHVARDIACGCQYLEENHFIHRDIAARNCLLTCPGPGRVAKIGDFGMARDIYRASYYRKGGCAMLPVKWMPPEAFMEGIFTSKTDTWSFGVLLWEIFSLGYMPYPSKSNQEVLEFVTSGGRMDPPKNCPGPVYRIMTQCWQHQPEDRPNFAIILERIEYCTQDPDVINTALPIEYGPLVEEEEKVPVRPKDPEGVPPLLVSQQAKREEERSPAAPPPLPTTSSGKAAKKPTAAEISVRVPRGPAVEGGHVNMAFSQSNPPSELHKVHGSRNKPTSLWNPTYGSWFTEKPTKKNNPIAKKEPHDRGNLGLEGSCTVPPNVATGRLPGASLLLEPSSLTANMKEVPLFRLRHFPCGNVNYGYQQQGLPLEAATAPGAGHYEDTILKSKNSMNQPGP", "sequence of UniProt P68400 (whole entry, looked up)": "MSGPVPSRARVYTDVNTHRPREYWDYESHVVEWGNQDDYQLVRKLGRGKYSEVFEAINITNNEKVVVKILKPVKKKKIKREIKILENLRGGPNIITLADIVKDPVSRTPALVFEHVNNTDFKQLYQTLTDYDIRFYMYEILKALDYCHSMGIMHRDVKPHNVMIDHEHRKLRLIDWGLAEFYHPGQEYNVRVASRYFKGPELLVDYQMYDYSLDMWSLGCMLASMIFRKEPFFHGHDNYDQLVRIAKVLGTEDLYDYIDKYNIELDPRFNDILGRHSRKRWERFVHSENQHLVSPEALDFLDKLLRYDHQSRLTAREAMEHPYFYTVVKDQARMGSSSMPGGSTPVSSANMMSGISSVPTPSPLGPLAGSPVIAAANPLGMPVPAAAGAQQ", "sequence of UniProt O75582 (whole entry, looked up)": "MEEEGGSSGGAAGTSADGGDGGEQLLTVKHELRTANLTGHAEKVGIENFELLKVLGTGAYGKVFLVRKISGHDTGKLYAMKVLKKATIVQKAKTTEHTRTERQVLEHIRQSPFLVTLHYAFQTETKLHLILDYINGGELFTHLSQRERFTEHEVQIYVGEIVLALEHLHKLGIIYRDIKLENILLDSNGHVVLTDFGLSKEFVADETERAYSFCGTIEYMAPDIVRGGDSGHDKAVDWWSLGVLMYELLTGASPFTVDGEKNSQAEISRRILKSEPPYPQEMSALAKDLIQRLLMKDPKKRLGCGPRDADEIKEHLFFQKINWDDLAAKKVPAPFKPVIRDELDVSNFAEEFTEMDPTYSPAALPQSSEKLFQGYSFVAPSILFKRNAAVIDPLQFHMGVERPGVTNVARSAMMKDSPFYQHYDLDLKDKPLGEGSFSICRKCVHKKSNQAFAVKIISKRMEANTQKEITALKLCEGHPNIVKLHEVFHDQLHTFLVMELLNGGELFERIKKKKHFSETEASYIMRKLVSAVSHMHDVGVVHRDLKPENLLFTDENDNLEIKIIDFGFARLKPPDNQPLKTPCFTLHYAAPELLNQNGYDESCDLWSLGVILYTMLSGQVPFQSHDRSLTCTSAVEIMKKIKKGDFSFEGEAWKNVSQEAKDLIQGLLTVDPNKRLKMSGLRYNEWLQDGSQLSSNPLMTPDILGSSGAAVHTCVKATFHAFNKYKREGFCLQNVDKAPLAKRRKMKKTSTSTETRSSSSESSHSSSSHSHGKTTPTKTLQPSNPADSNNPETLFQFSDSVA"}
{"data": "Study 1", "target": "panel of 300 human kinases", "tested at": "0.5 µM", "reading": "higher = more selective"}
{"SMILES": "COc1ccc(S(=O)(=O)N(CCO)c2ccccc2CN(C)CC=Cc2ccc(Cl)cc2)cc1", "Gini score": 0.69}
{"SMILES": "O=C(NC(NC(=S)Nc1ccc(F)c([N+](=O)[O-])c1)C(Cl)(Cl)Cl)C(c1ccccc1)c1ccccc1 (stereo not shown)", "Gini score": 0.75}
{"SMILES": "Nc1ncnc2c1cnn2-c1ccccc1", "Gini score": 0.55}
{"SMILES": "NC(=O)c1ccc(N(C(N)=O)c2c(F)cccc2F)nc1-c1ccc(F)cc1F", "Gini score": 0.73}
{"SMILES": "O=C1C(Cl)=C(N2C(=O)CCC2=O)C(=O)c2ccccc21", "Gini score": 0.74}
{"data": "Study 2", "technique": "PRP chromatography estimate", "sample": "1,9-decadiene/PBS", "pH": "7.4"}
{"SMILES": "CC(C)C[C@@H]1NC(=O)[C@H](CC(C)C)NC(=O)[C@@H](C(C)C)NC(=O)[C@H](CC(C)C)NC(=O)[C@@H](Cc2cscn2)NC(=O)[C@H](CCC(=O)N2CCCC2)NC(=O)[C@H](C)NC1=O", "logD": -2.26}
{"SMILES": "CC(C)C[C@@H]1NC(=O)[C@H](C)NC(=O)[C@@H](Cc2cscn2)NC(=O)[C@@H](CC(C)C)NC(=O)[C@H](C)NC(=O)[C@H](CC(C)C)NC(=O)[C@H](CC(C)C)NC1=O", "logD": -1.39}
{"SMILES": "CC(C)C[C@@H]1NC(=O)[C@H](CC(C)C)NC(=O)[C@H](CC(C)C)NC(=O)[C@H](Cc2cscn2)NC(=O)[C@@H](Cc2cscn2)NC(=O)[C@@H](CC(C)C)NC(=O)[C@H](C)NC1=O", "logD": -0.989}
{"SMILES": "CC(C)C[C@@H]1NC(=O)[C@H](Cc2cscn2)NC(=O)[C@H](C)NC(=O)[C@@H](CC(C)C)NC(=O)[C@@H](CCC(=O)N2CCCC2)NC(=O)[C@H](CC(C)C)NC(=O)[C@@H](CC(C)C)NC1=O", "logD": -0.765}
{"SMILES": "CC(C)C[C@@H]1NC(=O)[C@H](Cc2cscn2)NC(=O)[C@@H](CC(C)C)NC(=O)[C@@H](CCC(=O)N2CCCC2)NC(=O)[C@H](CC(C)C)NC(=O)[C@@H](CC(C)C)NC(=O)[C@H](CC(C)C)NC1=O", "logD": 0.456}
{"SMILES": "CC(C)C[C@@H]1NC(=O)[C@H](C(C)C)NC(=O)[C@H](CCC(=O)N2CCCC2)NC(=O)[C@H](CCC(=O)N2CCCC2)NC(=O)[C@@H](Cc2cscn2)NC(=O)[C@H](CC(C)C)NC(=O)[C@@H](CC(C)C)NC1=O", "logD": -1.9}
{"data": "Study 3", "Structure (SMILES)": "CN(C)CC#Cc1ccc(OCCCc2sc(N3CCc4cccc(C(=O)Nc5nc6ccccc6s5)c4C3)nc2C(=O)O)c(F)c1", "tested at": "1 µM"}
{"target": "Receptor-type tyrosine-protein kinase FLT3 (FLT3, Homo sapiens, UniProt P36888, N841I)", "test": "cell-free assay, competition with immobilised ligand", "remaining binding [%]": 81}
{"target": "ALK tyrosine kinase receptor (ALK, Homo sapiens, UniProt Q9UM73)", "test": "cell-free assay, competition with immobilised ligand", "remaining binding [%]": 100}
{"target": "Serine/threonine-protein kinase B-raf (BRAF, Homo sapiens, UniProt P15056, V600E)", "test": "cell-free assay, competition with immobilised ligand", "remaining binding [%]": 79}
{"target": "Serine/threonine-protein kinase LATS1 (LATS1, Homo sapiens, UniProt O95835)", "test": "cell-free assay, competition with immobilised ligand", "remaining binding [%]": 76}
{"target": "Mitogen-activated protein kinase kinase kinase kinase 1 (MAP4K1, Homo sapiens, UniProt Q92918)", "test": "cell-free assay, competition with immobilised ligand", "remaining binding [%]": 93}
{"target": "Calcium/calmodulin-dependent protein kinase type 1B (PNCK, Homo sapiens, UniProt Q6P2M8)", "test": "cell-free assay, competition with immobilised ligand", "remaining binding [%]": 100}
{"target": "Ephrin type-B receptor 6 (EPHB6, Homo sapiens, UniProt O15197)", "test": "cell-free assay, competition with immobilised ligand", "remaining binding [%]": 100}
{"target": "Ribosomal protein S6 kinase alpha-5, C-terminal kinase domain (RPS6KA5, Homo sapiens, UniProt O75582)", "test": "cell-free assay, competition with immobilised ligand", "remaining binding [%]": 83}
{"target": "Tyrosine-protein kinase ABL1, phosphorylated (ABL1, Homo sapiens, UniProt P00519, F317I)", "test": "binding", "remaining binding [%]": 100}
{"target": "Cyclin-dependent kinase 11B (CDK11B, Homo sapiens, UniProt P21127)", "test": "cell-free assay, competition with immobilised ligand", "remaining binding [%]": 93}
{"target": "Receptor-type tyrosine-protein kinase FLT3 (FLT3, Homo sapiens, UniProt P36888, R834Q)", "test": "cell-free assay, competition with immobilised ligand", "remaining binding [%]": 100}
{"target": "Focal adhesion kinase 1 (PTK2, Homo sapiens, UniProt Q05397)", "test": "cell-free assay, competition with immobilised ligand", "remaining binding [%]": 100}
{"target": "Protein-tyrosine kinase 2-beta (PTK2B, Homo sapiens, UniProt Q14289)", "test": "cell-free assay, competition with immobilised ligand", "remaining binding [%]": 100}
{"target": "Casein kinase II subunit alpha (CSNK2A1, Homo sapiens, UniProt P68400)", "test": "cell-free assay, competition with immobilised ligand", "remaining binding [%]": 100}
{"target": "Proto-oncogene tyrosine-protein kinase receptor Ret (RET, Homo sapiens, UniProt P07949, V804M)", "test": "cell-free assay, competition with immobilised ligand", "remaining binding [%]": 98}
{"target": "Ankyrin repeat and protein kinase domain-containing protein 1 (ANKK1, Homo sapiens, UniProt Q8NFD2)", "test": "cell-free assay, competition with immobilised ligand", "remaining binding [%]": 69}
{"data": "Study 4", "species": "mouse", "sample": "microsomes or S9", "tested at": "2 µM", "time": "0.5 h"}
{"SMILES": "O=C1CC(C2CCCCC2)c2cnn(Cc3cccs3)c2N1 (stereo not shown)", "remaining compound": "1.36%"}
{"SMILES": "OC(Cn1c(Cc2ccccc2)nc2ccccc21)Cn1c2ccc(Cl)cc2c2cc(Cl)ccc21 (stereo not shown)", "remaining compound": "67.7%"}
{"SMILES": "NCc1nc(COc2ccc3ccccc3c2)no1", "remaining compound": "5.26%"}
{"SMILES": "CCCC(=O)OC[C@@H](OC(=O)CCC)[C@@H](OC(=O)CCC)[C@H](Cn1c2nc(=O)[nH]c(=O)c-2nc2cc(C)c(C)cc21)OC(=O)CCC", "remaining compound": "0%"}
{"SMILES": "CCCC1(CC(=O)N2CCN(C)CC2)CCOC(C)(C)C1 (stereo not shown)", "remaining compound": "16.2%"}
{"SMILES": "CCn1nc(CN[C@@H]2CCC(=O)N[C@H]2c2ccnn2C)c2ccccc21", "remaining compound": "55.9%"}
{"SMILES": "Cc1nc2nc(CCNS(=O)(=O)c3cccs3)cn2nc1C", "remaining compound": "94.3%"}
